Results pooled from the literature.
Every numbered part comes from another study and shows a few of its results, in no order.

Study 1
Target: Histone acetyltransferase KAT6A, both winged helices, GST fusion (KAT6A, Homo sapiens, UniProt Q92794, residues 1-181)
Technique: protein binding microarray
Molecule type: double-stranded DNA, one strand shown
Medium: in vitro
Tested at: not given
Notes: 8-mer, flanks averaged, mean of 2 arrays, mostly near background
Reference: not given
Reading: higher = stronger binding
Target sequence (chain): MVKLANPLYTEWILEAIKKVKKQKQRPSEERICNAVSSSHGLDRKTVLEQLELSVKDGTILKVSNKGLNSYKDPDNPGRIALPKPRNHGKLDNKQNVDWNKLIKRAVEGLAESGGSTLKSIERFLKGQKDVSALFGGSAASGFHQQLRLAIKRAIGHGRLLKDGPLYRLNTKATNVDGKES
For `ACCCGGGT`, the E-score was 0.371.
With `CCCACCGG` the E-score was 0.0967.
`GAGAGGCA` gave an E-score of -0.2.
For `AAGCGAGG`, the E-score was -0.0418.
With `ACTCTACG` the E-score was -0.0518.
`ACCCCTTA` has an E-score of -0.209.

Study 2
Target: Sal-like protein 4, full length isoform B (SALL4, Homo sapiens, UniProt Q9UJQ4-2, residues 1-616)
Technique: universal PBM
Molecule type: double-stranded DNA, one strand shown
Medium: in vitro
Tested at: not given
Notes: 8-mer, flanks averaged, mean of replicates
Reading: higher = stronger binding
For `AACTACAT`, the E-score was 0.161.
With `CAGTAACG` the E-score was 0.0272.
`CCAGAGCG` gave an E-score of -0.309.
The E-score of `CTAGGCAA` is reported as -0.0318.

Study 3
Target: Prothrombin, mature alpha-thrombin (F2, Homo sapiens, UniProt P00734)
Technique: aptamer microarray, sandwich
Molecule type: DNA with 2'F-ANA
Medium: in vitro
Tested at: 200 nM
Notes: whole 15-mer aptamer, many near background
With: Cy3 exosite-II aptamer, 400 nM
Reading: higher = stronger binding
Strand: GGTTGGTGTGGTTGG
For `2'F-ANA at 1 3 4 5 6 8 10 12 14`, “mean fluorescence intensity” read 138 a.u.
For `2'F-ANA at 1 7 9 13 14 15`, “mean fluorescence intensity” read 57.7 a.u.
`2'F-ANA at 2 3 5 8 10 12 14 15` — result for “mean fluorescence intensity”: 48.5 a.u.
`2'F-ANA at 2 4 6 7 9`: “mean fluorescence intensity” 287 a.u.
For `2'F-ANA at 1 2 3 4 5 6 7 10 12`, “mean fluorescence intensity” read 47.4 a.u.

Mixed results
`PhoQ, residues 284 288 289 292 302 303 SNGLAW` has a fold induction of 10.2 (PhoP, residues 12 14 15 18 19 SMASL (Escherichia coli, UniProt P23836); Sort-seq, measured: YFP reporter; E. coli; PhoQ-PhoP variant library, with: 10 µM Mg2+; reference: high Mg2+ state, higher = stronger signaling).

For quick reference, copied from above (study 3):
For `2'F-ANA at 1 7 9 13 14 15`, “mean fluorescence intensity” read 57.7 a.u.
`2'F-ANA at 2 4 6 7 9`: “mean fluorescence intensity” 287 a.u.
